Experimental data collected from several papers.
Compare with care: the assays were run in different laboratories.
TDP1: Tyrosyl-DNA phosphodiesterase 1 (TDP1, Homo sapiens, UniProt Q9NUW8)
Chain of UniProt Q9NUW8 (whole entry, looked up): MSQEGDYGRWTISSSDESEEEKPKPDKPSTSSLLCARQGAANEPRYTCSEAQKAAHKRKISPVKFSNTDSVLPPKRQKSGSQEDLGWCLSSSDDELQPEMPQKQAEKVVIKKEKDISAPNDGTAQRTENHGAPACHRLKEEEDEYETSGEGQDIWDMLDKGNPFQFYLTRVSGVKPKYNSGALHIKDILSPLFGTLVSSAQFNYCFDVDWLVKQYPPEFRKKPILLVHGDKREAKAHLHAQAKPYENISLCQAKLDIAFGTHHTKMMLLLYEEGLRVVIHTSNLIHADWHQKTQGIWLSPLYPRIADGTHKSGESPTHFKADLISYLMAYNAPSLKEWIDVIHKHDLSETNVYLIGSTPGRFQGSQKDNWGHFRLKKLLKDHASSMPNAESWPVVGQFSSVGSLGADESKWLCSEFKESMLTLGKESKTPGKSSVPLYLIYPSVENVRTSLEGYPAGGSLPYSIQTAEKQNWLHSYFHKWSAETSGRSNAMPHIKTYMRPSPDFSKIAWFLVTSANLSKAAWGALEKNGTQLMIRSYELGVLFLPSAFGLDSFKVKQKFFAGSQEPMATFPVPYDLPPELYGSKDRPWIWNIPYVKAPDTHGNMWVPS

| SMILES | tested on | assay | test system | setting | endpoint | value |
| --- | --- | --- | --- | --- | --- | --- |
| CCC(CC)CNC(=N)NC(=N)NCCCCCCNC(=N)NC(=N)NCC(CC)CC | – | metabolic stability | rat, liver microsomes | 2 µM | half-life | 0.61 h |
| C[C@@H](Nc1nc2c(cnn2C(C)(C)C)c(=O)n1Cc1cccc(F)c1)c1ccc(Cl)cc1 | – | metabolic stability | rat, liver microsomes | – | half-life | 0.315 h |
| CN(C)C(=O)c1cccc(N2Cc3cn(Cc4ccc(F)cc4)nc3C2)c1 | – | metabolic stability | rat, liver microsomes | – | half-life | 2.57 h |
| O=C(O)c1ccc(Nc2c(-c3ccccc3)nc3ccc(CON=CC4C(=O)Oc5ccc(Cl)cc5C4=O)cn23)cc1 (stereo not drawn) | TDP1 | enzyme activity, inhibitor | – | 100 µM, unpurified compound | inhibition | 18.4% |
| Cc1ncsc1-c1ccc([C@@H]2CCCCCCNC(=O)C[C@@H]3N=C(c4ccc(cc4)OCCCCCC(=O)N[C@@H](C(C)(C)C)C(=O)N4C[C@H](O)C[C@H]4C(=O)N2)c2c(sc(C)c2C)-n2c(C)nnc23)cc1 | – | metabolic stability | rat, liver microsomes | 1 µM | half-life | 1.36 h |
| O=c1c(-c2cnn(-c3ccc(Cl)cc3)c2)c(C(F)(F)F)oc2c(O)c(O)ccc12 | – | metabolic stability | rat, liver microsomes | – | half-life | > 8.33 h |
| Cc1c(C=NOCc2ccc(-c3nc4cc(-c5ccccc5)ccn4c3Nc3ccc(C(=O)O)cc3)cc2)cnn1CCC(=O)O | TDP1 | enzyme activity, inhibitor | – | 100 µM, unpurified compound | inhibition | 64.5% |
| C=C(NC(=O)c1csc(-c2nc3c(cc2O)-c2nc(cs2)C(=O)NC(C(C)O)C(=O)NC(=C(C)OC)c2nc(cs2)C(=O)NC2c4nc(cs4)C(=O)NC(COC(=O)c4c5c6c(cccc6n4O)COC(=O)C(OC4CC(C)(O)C(N(C)C)C(C)O4)C2OC5)c2nc-3cs2)n1)C(N)=O (stereo not drawn) | – | metabolic stability | rat, liver microsomes | 2 µM | half-life | 13.4 h |
| O=C(c1ccnc(N2Cc3cn(Cc4ccc(F)cc4)nc3C2)n1)N1CCCCC1 | – | metabolic stability | rat, liver microsomes | – | half-life | 0.317 h |
| CC(C)(C)n1ncc2c(=O)n(Cc3cccc(F)c3)c(NCc3cc(Cl)ccn3)nc21 | – | metabolic stability | rat, liver microsomes | – | half-life | 0.0717 h |
| CN(C)C(=O)c1ccnc(N2Cc3cn(Cc4ccc(F)cc4)nc3C2)n1 | – | metabolic stability | rat, liver microsomes | – | half-life | 2.63 h |
| CC(C)(C)n1ncc2c(=O)n(Cc3cccc(F)c3)c(NCc3ccc(Cl)nc3)nc21 | – | metabolic stability | rat, liver microsomes | – | half-life | 3.38 h |
| CN(C)C(=O)c1ccnc(N2Cc3cn(Cc4ccc(F)cc4Cl)nc3C2)n1 | – | metabolic stability | rat, liver microsomes | – | half-life | 2.05 h |
| CC(C)(C)n1ncc2c(=O)n(Cc3cccc(F)c3)c(NCc3ccc(Cl)cn3)nc21 | – | metabolic stability | rat, liver microsomes | – | half-life | 0.483 h |
| O=C(Nc1cc(-c2ccnc3[nH]ccc23)c(Cl)cn1)[C@H]1CCC[C@@H](NC(=O)C(F)(F)F)C1 | – | metabolic stability | rat, liver microsomes | – | half-life | 0.58 h |
